Published values collected from several papers.
A part holds a random share of what one study measured.

Sample 1 — method: protein-binding microarray; form: double-stranded DNA, one strand shown; sample: in vitro; concentration: not given; reading: higher = stronger binding
Target: TATA-box-binding protein 1 (TBP1, Arabidopsis thaliana, UniProt P28147, residues 1-200, full length assumed)
Setting: k-mer, scored over probes, only values ≥0.25
Residues (chain): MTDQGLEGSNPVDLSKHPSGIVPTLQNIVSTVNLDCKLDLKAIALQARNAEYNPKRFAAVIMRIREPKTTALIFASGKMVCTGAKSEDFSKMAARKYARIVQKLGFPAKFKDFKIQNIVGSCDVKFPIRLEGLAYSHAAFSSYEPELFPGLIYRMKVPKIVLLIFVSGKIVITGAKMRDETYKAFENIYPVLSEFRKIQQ
Strand	E-score
CTATAAG	0.327
GCTATTA	0.289
CGTTTAA	0.291
GCCTTTA	0.271
AAATTTA	0.381
GCATTTA	0.302
ATAATTC	0.353
ATGATAA	0.291
ATAATAT	0.452
TATAGAA	0.316
CCTATAA	0.347
TAATGTA	0.291
ATACGAT	0.271
GACTATA	0.338
ATACTAT	0.296
AGATAAA	0.362
AAGATAT	0.305
CCATATA	0.41

Sample 2 — method: protein-binding microarray; form: double-stranded DNA, one strand shown; sample: in vitro; concentration: 0.8 µM; setting: whole 60-bp probe, no competitor; reading: higher = stronger binding; shared flanks, not repeated: … GTCTTGATTCGCTTGACGCTGCTG
Target: Centromere-binding protein 1, full length, N-terminal tag (CBF1, Saccharomyces cerevisiae, UniProt P17106, residues 1-351)
Sequence of UniProt P17106 (whole entry, looked up): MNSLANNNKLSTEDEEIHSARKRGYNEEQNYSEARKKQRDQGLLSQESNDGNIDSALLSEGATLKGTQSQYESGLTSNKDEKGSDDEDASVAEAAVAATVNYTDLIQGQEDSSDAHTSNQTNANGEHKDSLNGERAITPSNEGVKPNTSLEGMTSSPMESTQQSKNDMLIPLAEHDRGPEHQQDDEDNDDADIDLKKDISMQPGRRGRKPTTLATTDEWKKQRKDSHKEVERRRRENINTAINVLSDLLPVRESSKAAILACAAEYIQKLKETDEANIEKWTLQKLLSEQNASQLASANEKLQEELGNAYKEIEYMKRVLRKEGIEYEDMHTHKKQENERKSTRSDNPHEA
Strand	fluorescence intensity
GAATATGTCACTAACGACGTGCACCAACTTGCGTAG	522 a.u.
CTAGTAAAAGCCGGGAACGTGCGTAACAATTTTTTC	654 a.u.
CCTAACTACTATAAGAACGTGAAATAGCTTCGTACA	547 a.u.
GAAATTATCAGCCTCCATGTGCTTGCGTGCTGTTAG	561 a.u.
CTACGTATACGTTTAAGTGTGATTGCACCTATTTTC	503 a.u.
CTAGCACCCTTTGGACTCGTGATTCCGTGGAAATTC	1020 a.u.
GAATTCTCGCCATAATCGCTGATGTCAAAAATTTAG	539 a.u.
CTACCGTAAAGTTCGATCGTGACTTCCTGTTGCTTC	633 a.u.
GAATCTGTGGACCCCCTCACCTTATACCACTACTAG	532 a.u.
GAATGCTCCGCTACAAACGTGGTGGAGTTTTAATAG	503 a.u.
GAACCCCCCTTGCGCCTCCTGATTCACGTGATGTAG	2410 a.u.
CTAGCAGTGTCGTCGTACGTGATGAGGGCAGGCTTC	528 a.u.
GAAGGTATTTTATGTCACGTACGGTTTTCAAAATAG	1260 a.u.
GAAGCCCCACGCAAGCATGTGCAGCAACGGACATAG	632 a.u.
CTAAAACAGAGCAGTCATATGATCAAAATACAGTTC	2290 a.u.
CTACTGCGGCTCCGCCTCGTGCTGCTCAAGGGCTTC	597 a.u.
CTAGCTAACGATCAACACCTGACCGAGATAACATTC	1970 a.u.
GAAATGTTTCAGCATGATGTCGGAGGTAGAAAATAG	631 a.u.
GAATGAGGACGAAGTGGTGACACCCGCTGAGGATAG	529 a.u.
CTAAGCTTCAATAAATGCGTGACTGGCTATAGTTTC	844 a.u.
GAAAAAATTGAGAGTGATGTCGCTTTAACTTGATAG	463 a.u.
CTACTTGGTCAGCTTGATGTTACCAGCACCATCTTC	523 a.u.

Sample 3 — method: RNA Bind-n-Seq; form: RNA; sample: in vitro; concentration: 365 nM; relative to: no-protein control; reading: higher = stronger binding
Target: RNA binding protein fox-1 homolog 2, RRM domain, GST-SBP tag (RBFOX2, Homo sapiens, UniProt O43251-10, residues 100-194)
Setting: natural RNA segment, single round, ends assumed
Shared flanks, not repeated: GGGAGUUCUACAGUCCGACGAUC … UGGAAUUCUCGGGUGCCAA
Construct (chain): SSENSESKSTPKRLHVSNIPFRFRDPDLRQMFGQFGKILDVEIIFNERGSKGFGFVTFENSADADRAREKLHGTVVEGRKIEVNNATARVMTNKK
Strand	RBNS enrichment (R)
GACCACAGCACACCCAAGGACAUGUGCCUGUCCGGGAGGGCAGCAUGCCGACUUGAUCUUUGAGCCCACUCGUCUGCAUUUGUUCUUUGGGAUUAUAUAAUCUAGGGCCA	6.41
UUAAUCGGUAAUCUGCUGGCUUGUUUGUUAACCAGAACGAUGAAUUUAUCAGUGAUUUGUAAGUUUCAUCAAGUGAUUUCUUCGACAAGAUGAACCAAAGGAUUAGCCUC	0.804
GUGACAAAGUUUGCACUUACAAAAUCAUGUAAAUAUGUCACAUUUUGUUUUAACAUUUUUUUCAAAGUAUUUAGGUAAUGAUGUAUUAACUUCACAUUCAGAUUUAUGUU	0.683
GACUUUAAGGCAGGCAACACUGGACCAUAGUGGUGCAGGCCUUCUAUUGAGGCCAGAGGAGCAAGUGUGCUUCUUCCUUGUCCUUGUCCCAUCAUUGAGACCUUCAUCUA	0.223
UGUUACAAUACUGCUGCUUUGAGCAAUUUUGUUUCUCUUCAUUGUCUGUUAGGGAAAUCACCAGCUUUGGCAUCUUAACAACAAACAGUGGAUGGGUAAUUUUUAUUUCU	0.383
CUCUCACGGUCCUCCUUCCUGGGACCUGAGCAGGUUUGGUGAAAGCCACCGUCCUCCGUGACACACGGCCCCCUUCCUCCUGUCCCCACACUCCCAGGAGAAACUCCCGG	0.353
AGUGGCUUCUGUCUUUAUGUCUGUUGGCAUAUCAAAAUGGUUUCUGUUCCUAGAAAAGUAAUAACAUAUGCUUAUCUUUAUUCUUUUUCCAGGUGAUUUUGUUUUCAAAU	0.598
AUCUGUAUUAUACACUAAGCUAUUACAAUGGUACUUAAAAUAAUGUAAAUUUGAAGUCAUUGUUAUAAAAUAAUAAAGUGGAGAUUACUUAAGUAUUUAAAUUAUGAAAG	0.557
AAAACAUCAGUUUCCUCUCAUACAUUCCAAGUAAACCAAGUAAAAUAAGUGUUGGAGUAACACUUGCAUAAAAGAAUUUAAGGAGUGAUAGCUCUUUCUGUUCUGCCAUU	0.393
CAUUCUUAAGCCUAUGCGAGUCCCCUAGAGAGAGGCAUUGUACUGAUAUAUAAAUAUUAUAUAAUAUAUACAUGAGACAUACUGACAGAAUCUGUAAGCUAAUAAAAUGU	0.72
UUUAUUCUUGUUUUGCCUUUUGGGUCUUAUUUCCAGGUCAGGAGAUGGCUAAUCCACACUAGCAAGCCUAGGCAUCUUUAUUCACAUCUCCAUGCUUUCAAGUAGAGCUG	0.417
GGGAACAUUAUGUAUAUUGACCUUAAACAUAGGUGUCCUAUAUUUGGAUUGUGACUUGUAGACUCAAGCUAACCUUACUGCCUCUUUUUCACACUUGUUGAAAAGUCUGU	0.505

Sample 4 — method: RNA Bind-n-Seq; form: RNA; sample: in vitro; concentration: 100 nM; relative to: input RNA pool; reading: higher = stronger binding
Target: RING finger protein unkempt homolog, zinc fingers 1-6, SBP tag (UNK, Homo sapiens, UniProt Q9C0B0, residues 30-357)
Sequence of UniProt Q9C0B0 (30-357, looked up): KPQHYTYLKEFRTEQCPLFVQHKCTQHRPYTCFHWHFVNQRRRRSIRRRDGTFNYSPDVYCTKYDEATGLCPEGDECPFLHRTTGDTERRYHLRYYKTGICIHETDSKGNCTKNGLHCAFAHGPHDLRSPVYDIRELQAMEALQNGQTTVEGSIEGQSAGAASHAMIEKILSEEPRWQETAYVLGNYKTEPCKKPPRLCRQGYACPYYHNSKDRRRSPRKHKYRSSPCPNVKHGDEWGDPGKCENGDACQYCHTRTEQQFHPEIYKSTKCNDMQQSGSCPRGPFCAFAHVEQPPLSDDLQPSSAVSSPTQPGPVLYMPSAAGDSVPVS
Setting: RNA with constant flanks, vertebrate orthologous sites, ends assumed
Shared flanks, not repeated: GGGAGUUCUACAGUCCGACGAUC … CAACAGAGGAUUGAGCAUCA
Strand	bound/input enrichment
GCACAUGCCGCUAUUACCAAAACCAGACUGCCACGGUUCACAUUUCGUCCAGUCCUUUCAGUGUUUCCGGCCCCGAUCCUGUCUAGUCCUUUCAGUGAUGAGGUACCCUGAGUUCUCCUU	0.471 ratio
GUAGACAUGAGAAAGUAUGCAUGUACCCCAUGUAUUUGCCUGGAAAUACAGAACGGAAGAAAGAAAAGCCAUGCAAUGUGACAAAGGUAUCUGAGAAGGAAGAUCCAGGCCAGAGUCCCG	0.19 ratio
AUUGGAUGCAGUGUAACACUAUCCAAGGCAGUGACUUCAGCUUUAUAUACAUAUAAAAUAUAGUUAGUUUUAAAAUUAUUGACAUUUAUUUAAACUUUUAGAUUGGAUUGUUUGCUAUUG	2.26 ratio
UUGGGACCAGCUCUCCAAAUAGGAAUAGUAGUAAAAGAAAUAAACAAAAUGAUAUUUGUAUAGAAAAAACAGAAGUUAAAUCAUGCAAGGGAAAUGCUGCCAGCGUUGCAGGCCCUAAAG	1.15 ratio
UCUGCGUAGCAAUUAGAGUGGGUUCUCCCACUCGUCCUGUCACAAGGAAGAAAGCUCAAAUAGGUUCUUUACACAUCUGAUUAUGCUGUUCUGUUUCUCUUUUCUAUUUUUACAUAUACA	1.42 ratio
GAGCUAAAGGAGUUAGCAUCUUUAUUUUUGUAUCAAAGAUAAAGGUUAUUUUGAAACUAUUAGGAUUUUUACACAAUUCUGAAAUCUGUUGCUUUUGUAAACAAAUUGUUUGAUCUUAGU	0.443 ratio
UAUCUUUAGGAUGAAGCUCUUACACCAGGUGGCACGAGUCUGGAAGACAGAUGGGUUGACUAGUUGUACUUAUAAGUUACUUUCUGUGAAGCACAAUCCUUUGUAUAUCAAUAUCACAGU	0.597 ratio
CAGGGUGUACCUGUGGGGCACUGCUGGCCGCUUAUUGUUGUUUAAUUUGUGACCUUGACAUCAUAGAUAGGAUUUUUUUUUUUAUUUAAAGAUAUUAAGACUUAAUUCACUAAAAUUUAU	0.445 ratio
AUUGAACAAAAAUAUUUCCACUGGCUUUUGCCUGUAAGAAAAAAAAUGUACCCGAGCACAUAGAGCUUUUUAAUAGCACUAACCAAUGCCUUUUUAGAUGUAUUUUUGAUGUAUAUAUCU	0.691 ratio
UUAGGUAGGGGUAACCAUUAAUUUAUUUAAAGUAAAGAAAUGGAAUGUUGAAAAUCAUACUAGUACUAAGCUUAGCUGGAGAAUUUCUCCAGCUACACUUCACGCUCUCAUUCUCCAGUC	0.874 ratio
GCUCUAGUUCUUAACAACCGACACUCCUAAAAGAUUUAGAAAAAAGUUUACAAAAUAAUCUAGUUUACAGAAAAAUCUUGUGCUAGAAUACUUUUUAAAAGGUAUUUUGAAUACCAUUAA	0.787 ratio

Sample 5 — method: protein binding microarray; form: double-stranded DNA, one strand shown; sample: in vitro; concentration: not given; relative to: not given; reading: higher = stronger binding
Target: Histone acetyltransferase KAT6A, winged helix 1, GST fusion (KAT6A, Homo sapiens, UniProt Q92794, residues 1-85)
Setting: 8-mer, flanks averaged, mean of 2 arrays, mostly near background
Target sequence (chain): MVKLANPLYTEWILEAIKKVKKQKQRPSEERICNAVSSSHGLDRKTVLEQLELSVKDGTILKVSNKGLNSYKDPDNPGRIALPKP
Strand	E-score
AATTATCA	-0.105
CATTGTAC	0.0402
CATTGGCA	-0.272
CTTCGAGA	-0.18
CGCAAGGA	-0.0115
TCAATCAA	-0.0957
ATCTCAAA	-0.0729
ATGAAATG	-0.272
CGTTGGTC	-0.155
AAGCGACG	0.313
ACTGGGGG	-0.0163
AGTGGTGG	-0.169
ACACCTAT	-0.0278
GAAAGGGA	0.0209
AACCATAC	-0.0772
ATTTCGCG	0.21
GCAGATAA	-0.0953
CATTCCCG	0.266
CCAGTGTC	-0.0577
CACCTTCC	-0.0702
GCGGCAGA	0.377
CAGGTGGG	-0.251
GGCATCCC	0.0791
TTACCTAA	-0.225

A few entries again (sample 2):
Strand	fluorescence intensity
GAATATGTCACTAACGACGTGCACCAACTTGCGTAG	522 a.u.
CTAGTAAAAGCCGGGAACGTGCGTAACAATTTTTTC	654 a.u.
CCTAACTACTATAAGAACGTGAAATAGCTTCGTACA	547 a.u.
GAAATTATCAGCCTCCATGTGCTTGCGTGCTGTTAG	561 a.u.
CTACGTATACGTTTAAGTGTGATTGCACCTATTTTC	503 a.u.
CTAGCACCCTTTGGACTCGTGATTCCGTGGAAATTC	1020 a.u.
GAATTCTCGCCATAATCGCTGATGTCAAAAATTTAG	539 a.u.
CTACCGTAAAGTTCGATCGTGACTTCCTGTTGCTTC	633 a.u.
GAATCTGTGGACCCCCTCACCTTATACCACTACTAG	532 a.u.
GAATGCTCCGCTACAAACGTGGTGGAGTTTTAATAG	503 a.u.
GAACCCCCCTTGCGCCTCCTGATTCACGTGATGTAG	2410 a.u.
CTAGCAGTGTCGTCGTACGTGATGAGGGCAGGCTTC	528 a.u.
GAAGGTATTTTATGTCACGTACGGTTTTCAAAATAG	1260 a.u.
